Published values of several laboratories.
Each numbered part is a random draw from the data of one study; scales do not carry over between parts. “And” joins repeats or separate records; there may be more than shown.
Sequence of UniProt Q96L34 (whole entry, looked up): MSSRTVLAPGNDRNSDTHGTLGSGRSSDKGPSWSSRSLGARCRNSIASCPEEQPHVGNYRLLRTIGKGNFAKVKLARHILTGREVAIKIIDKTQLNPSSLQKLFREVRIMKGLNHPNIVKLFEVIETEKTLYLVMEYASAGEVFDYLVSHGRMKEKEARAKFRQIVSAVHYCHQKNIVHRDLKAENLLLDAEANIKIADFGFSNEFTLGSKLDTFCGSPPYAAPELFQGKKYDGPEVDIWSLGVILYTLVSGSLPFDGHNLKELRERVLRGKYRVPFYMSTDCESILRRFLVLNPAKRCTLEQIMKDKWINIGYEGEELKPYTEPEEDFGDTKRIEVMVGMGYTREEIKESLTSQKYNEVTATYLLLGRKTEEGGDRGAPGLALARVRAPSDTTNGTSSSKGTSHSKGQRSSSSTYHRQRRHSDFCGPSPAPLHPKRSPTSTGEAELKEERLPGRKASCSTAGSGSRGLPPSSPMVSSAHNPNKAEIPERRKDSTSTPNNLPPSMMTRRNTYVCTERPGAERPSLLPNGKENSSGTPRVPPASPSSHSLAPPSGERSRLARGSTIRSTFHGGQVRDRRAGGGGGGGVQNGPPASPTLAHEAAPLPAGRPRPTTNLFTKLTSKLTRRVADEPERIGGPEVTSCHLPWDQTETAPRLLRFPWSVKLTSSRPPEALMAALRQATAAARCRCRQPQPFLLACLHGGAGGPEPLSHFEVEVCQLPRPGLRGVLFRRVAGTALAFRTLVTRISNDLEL
Sequence of UniProt O75716 (whole entry, looked up): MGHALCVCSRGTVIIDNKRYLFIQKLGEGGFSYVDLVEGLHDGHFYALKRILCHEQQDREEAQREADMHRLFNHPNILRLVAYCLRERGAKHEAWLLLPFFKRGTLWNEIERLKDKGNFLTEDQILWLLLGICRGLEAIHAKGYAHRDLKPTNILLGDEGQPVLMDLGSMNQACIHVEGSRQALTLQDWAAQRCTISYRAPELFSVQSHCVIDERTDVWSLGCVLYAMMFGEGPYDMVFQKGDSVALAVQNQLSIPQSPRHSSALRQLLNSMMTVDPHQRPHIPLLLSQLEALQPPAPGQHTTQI
Sequence of UniProt P51956 (whole entry, looked up): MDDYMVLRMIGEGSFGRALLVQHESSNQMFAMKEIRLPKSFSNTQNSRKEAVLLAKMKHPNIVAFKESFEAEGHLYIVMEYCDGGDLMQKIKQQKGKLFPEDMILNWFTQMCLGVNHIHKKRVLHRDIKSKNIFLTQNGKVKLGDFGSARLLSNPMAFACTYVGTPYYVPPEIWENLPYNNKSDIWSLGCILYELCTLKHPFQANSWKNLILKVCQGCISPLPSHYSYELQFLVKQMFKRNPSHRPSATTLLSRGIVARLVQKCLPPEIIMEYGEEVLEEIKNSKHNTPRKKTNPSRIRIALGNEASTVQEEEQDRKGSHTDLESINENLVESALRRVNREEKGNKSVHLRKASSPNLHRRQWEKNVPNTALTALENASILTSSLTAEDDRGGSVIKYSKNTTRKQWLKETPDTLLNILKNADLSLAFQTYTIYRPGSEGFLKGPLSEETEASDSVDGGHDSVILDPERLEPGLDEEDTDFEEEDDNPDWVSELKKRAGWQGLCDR
Sequence of UniProt Q99759 (whole entry, looked up): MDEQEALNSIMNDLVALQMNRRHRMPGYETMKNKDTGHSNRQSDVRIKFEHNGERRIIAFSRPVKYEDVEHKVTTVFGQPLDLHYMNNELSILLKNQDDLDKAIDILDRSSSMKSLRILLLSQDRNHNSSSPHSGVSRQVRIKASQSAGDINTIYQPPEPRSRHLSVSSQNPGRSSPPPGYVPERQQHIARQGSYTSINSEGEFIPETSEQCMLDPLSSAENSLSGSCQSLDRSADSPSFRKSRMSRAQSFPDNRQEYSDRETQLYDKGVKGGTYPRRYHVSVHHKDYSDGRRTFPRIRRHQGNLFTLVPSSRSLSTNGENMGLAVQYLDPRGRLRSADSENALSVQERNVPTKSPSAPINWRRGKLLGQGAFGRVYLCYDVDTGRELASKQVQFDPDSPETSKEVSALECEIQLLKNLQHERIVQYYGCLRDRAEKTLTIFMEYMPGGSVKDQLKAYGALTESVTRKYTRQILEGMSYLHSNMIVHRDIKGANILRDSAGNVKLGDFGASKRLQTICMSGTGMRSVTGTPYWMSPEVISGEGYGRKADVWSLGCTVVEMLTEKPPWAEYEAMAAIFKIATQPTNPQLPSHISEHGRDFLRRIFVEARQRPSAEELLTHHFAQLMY
Sequence of UniProt P30291 (whole entry, looked up): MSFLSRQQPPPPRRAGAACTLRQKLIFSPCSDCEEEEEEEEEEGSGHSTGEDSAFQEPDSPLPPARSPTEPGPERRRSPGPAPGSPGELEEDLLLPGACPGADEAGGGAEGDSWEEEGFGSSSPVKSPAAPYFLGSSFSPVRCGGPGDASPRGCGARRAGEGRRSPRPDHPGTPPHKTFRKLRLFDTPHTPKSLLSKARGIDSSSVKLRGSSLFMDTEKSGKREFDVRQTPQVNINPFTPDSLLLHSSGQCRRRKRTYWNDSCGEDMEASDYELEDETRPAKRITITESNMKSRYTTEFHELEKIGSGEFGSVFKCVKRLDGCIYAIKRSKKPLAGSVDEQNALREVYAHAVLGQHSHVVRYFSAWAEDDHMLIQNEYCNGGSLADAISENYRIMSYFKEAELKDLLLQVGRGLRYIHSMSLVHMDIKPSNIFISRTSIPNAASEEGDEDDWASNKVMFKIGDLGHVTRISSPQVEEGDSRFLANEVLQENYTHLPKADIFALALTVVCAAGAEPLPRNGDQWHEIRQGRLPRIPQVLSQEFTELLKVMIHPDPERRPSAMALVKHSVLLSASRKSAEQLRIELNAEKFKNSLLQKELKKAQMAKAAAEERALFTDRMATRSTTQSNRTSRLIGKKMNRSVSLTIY
Sequence of UniProt Q00537 (whole entry, looked up): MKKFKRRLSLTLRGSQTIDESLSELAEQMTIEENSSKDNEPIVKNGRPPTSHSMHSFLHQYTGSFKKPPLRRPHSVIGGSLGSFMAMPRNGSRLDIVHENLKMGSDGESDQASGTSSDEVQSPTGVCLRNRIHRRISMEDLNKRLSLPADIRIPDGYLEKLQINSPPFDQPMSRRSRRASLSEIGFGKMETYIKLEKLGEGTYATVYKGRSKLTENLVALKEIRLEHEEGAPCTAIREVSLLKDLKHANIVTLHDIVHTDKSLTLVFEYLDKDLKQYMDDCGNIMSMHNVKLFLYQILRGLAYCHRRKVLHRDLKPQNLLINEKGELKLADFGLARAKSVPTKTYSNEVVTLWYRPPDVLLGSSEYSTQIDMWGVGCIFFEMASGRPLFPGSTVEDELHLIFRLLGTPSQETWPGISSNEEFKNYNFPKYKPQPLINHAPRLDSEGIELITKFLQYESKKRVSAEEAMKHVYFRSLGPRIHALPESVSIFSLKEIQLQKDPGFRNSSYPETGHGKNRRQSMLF
Sequence of UniProt Q9UQB9 (whole entry, looked up): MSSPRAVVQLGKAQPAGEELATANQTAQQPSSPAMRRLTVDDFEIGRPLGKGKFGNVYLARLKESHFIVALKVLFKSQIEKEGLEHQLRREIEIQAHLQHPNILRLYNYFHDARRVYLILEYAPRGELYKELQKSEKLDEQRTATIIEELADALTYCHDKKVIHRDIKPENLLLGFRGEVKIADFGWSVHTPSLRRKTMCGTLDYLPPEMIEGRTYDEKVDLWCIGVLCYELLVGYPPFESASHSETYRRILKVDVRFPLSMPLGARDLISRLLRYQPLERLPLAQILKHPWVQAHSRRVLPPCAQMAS
Sequence of UniProt Q8N752 (whole entry, looked up): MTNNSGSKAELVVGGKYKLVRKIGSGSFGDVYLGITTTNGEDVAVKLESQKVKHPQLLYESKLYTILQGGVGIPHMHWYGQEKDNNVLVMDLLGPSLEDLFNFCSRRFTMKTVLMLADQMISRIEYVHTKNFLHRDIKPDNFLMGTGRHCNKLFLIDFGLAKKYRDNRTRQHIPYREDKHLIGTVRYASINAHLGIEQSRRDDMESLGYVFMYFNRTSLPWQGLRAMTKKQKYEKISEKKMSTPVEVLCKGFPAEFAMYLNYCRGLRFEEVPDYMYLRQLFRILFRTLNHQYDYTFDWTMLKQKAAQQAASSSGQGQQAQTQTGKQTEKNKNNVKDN

Sample 1
Target: Beta-1 adrenergic receptor (ADRB1, Homo sapiens, UniProt P08588)
Sequence of UniProt P08588 (whole entry, looked up): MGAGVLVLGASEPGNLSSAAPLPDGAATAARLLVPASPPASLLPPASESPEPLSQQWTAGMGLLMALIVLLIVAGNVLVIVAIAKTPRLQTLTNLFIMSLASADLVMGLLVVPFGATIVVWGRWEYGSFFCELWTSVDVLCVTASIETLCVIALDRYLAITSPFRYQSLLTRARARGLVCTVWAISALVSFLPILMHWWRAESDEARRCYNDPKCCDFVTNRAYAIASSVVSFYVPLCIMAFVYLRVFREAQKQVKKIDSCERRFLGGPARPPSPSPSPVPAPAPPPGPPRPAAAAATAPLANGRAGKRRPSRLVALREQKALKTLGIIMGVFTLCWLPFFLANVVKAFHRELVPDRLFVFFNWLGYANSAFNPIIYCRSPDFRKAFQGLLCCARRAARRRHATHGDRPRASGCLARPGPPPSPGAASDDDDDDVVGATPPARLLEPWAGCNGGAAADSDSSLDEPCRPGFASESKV
Action: antagonist
O=C(O)Cc1ccc(OCCNC[C@H](O)c2ccccc2)cc1 gave an IC50 of ≥ 100 µM.
The IC50 of Cc1noc2c(-c3cccnc3NC3CCN(C)CC3)cc(-c3ccccc3)nc12 is reported as ≥ 100 µM.
For COc1ccccc1N1CCN([S+](=O)([O-])N2CCC(C)C2)CC1 (stereo not drawn), the IC50 was ≥ 100 µM.
The IC50 of Cc1ccsc1-c1n[nH]c2ncc(-c3cnn(C)c3C)nc12 is reported as ≥ 100 µM.
Cn1cc(-c2cnc(Nc3ccc(N4CCOCC4)cc3)c3c2CCO3)cn1 has an IC50 of ≥ 100 µM.

Sample 2
Host: human
Sample: microsomes or S9
Concentration: 2 µM
Time: 0.5 h
The remaining compound of CCOC(=O)C1(Cc2ccccc2)Nc2ccccc2C1=O (stereo not drawn) is reported as 0.684%.
O=C(Nc1cccc2c1N(c1ncccn1)CC2)c1ccccc1 gave a remaining compound of 1.34%.
For O=C(NCCc1ccccc1)Nc1cnc(O)nc1O, the remaining compound was 81.5%.
For Cn1ncc2cc(C(=O)Nc3ccn(Cc4ccncc4)n3)cc(O)c21, the remaining compound was > 100%.
For CCN1CCC(N(C)S(=O)(=O)c2c(C)cc(C(C)(C)C)cc2C)CC1, the remaining compound was 61.6%.
The remaining compound of Cc1ccc2c(c1)c(=O)n(C)c1nnc(CNC(C)c3ncc(C)s3)n21 (stereo not drawn) is reported as 92.2%.

Sample 3
Target: Ras GTPase-activating protein-binding protein 1, full length (G3BP1, Homo sapiens, UniProt Q13283)
Sequence of UniProt Q13283 (whole entry, looked up): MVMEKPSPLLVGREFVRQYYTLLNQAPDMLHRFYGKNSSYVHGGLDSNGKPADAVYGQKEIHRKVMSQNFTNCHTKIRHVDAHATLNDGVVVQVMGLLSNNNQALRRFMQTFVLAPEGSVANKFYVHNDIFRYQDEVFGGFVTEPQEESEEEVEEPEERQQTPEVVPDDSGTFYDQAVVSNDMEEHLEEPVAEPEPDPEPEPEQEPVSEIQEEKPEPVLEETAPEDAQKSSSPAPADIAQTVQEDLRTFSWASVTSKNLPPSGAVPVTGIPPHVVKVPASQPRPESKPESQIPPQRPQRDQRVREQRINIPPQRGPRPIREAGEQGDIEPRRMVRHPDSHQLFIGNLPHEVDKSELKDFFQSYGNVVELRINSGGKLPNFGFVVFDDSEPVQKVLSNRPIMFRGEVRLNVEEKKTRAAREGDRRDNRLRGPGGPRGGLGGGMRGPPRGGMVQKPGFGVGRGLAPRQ
Method: RNA Bind-n-Seq
Molecule type: RNA
Sample: in vitro
Concentration: 200 nM
Setting: whole 134-nt RNA, ends assumed
With: 150 mM KCl
Relative to: input library
Reading: higher = stronger binding
Constant ends, left off below: GGGAGUUCUACAGUCCGACGAUC … UGGAAUUCUCGGGUGUCAAGG
`CACAGACAACACGCACCCACACAGACACAGAGGGAAGGGGGUGGGAUGGGGACAGGGUGCACAGCAGGGCGGGGUAGGACCCCAGCCCCU` gave a log2 enrichment of 1.66.
`GCAGGAAGUAACAACAAAUGGAAAUGCUUCGGAUAGUGGCAGGGGUGGGGGUUGCUAAGGAAAGGGUGGGAUGGGAGUGGGUAAAGAGUU` has a log2 enrichment of 1.07.
With `AAGUCCUGUGCUACACAUCGUAUGUACCGAAUCGGGAGGGAAAAAGGGUUUUUGGGAAAGUAUUAUGUUACGCCGUUCGGAUCUGCACUU` the log2 enrichment was 0.124.
`CAAGUCCUGUGCUACACAUCGUAUGUACCGAAUCGGUUUUUGGAAAAAAAGGUGGAAAGUAUUAUGUUACGCCGUUCGGAUCUGCACUUC` gave a log2 enrichment of -0.808.
The log2 enrichment of `UCAAGUCCUGUGCUACACAUCGUAUGUACCGAAUCGGGGCCCGGGCCCGGCCCGGAAAGUAUUAUGUUACGCCGUUCGGAUCUGCACUUC` is reported as -0.876.
The log2 enrichment of `GUCCUGUGCUACACAUCGUAUGUACCGAAUCGGGGUGGGGUUUUUUUGGGGAAAGGGGAAAGUAUUAUGUUACGCCGUUCGGAUCUGCAC` is reported as 0.434.
With `CCUGUGCUACACAUCGUAUGUACCGAAUCGGUUUUUUGGGUUUUUUGGGGUUUUUUGGGGAAAGUAUUAUGUUACGCCGUUCGGAUCUGC` the log2 enrichment was -0.933.
`UCAAGUCCUGUGCUACACAUCGUAUGUACCGAAUCGGGCCGGGCCGGGGCCGGGAAAGUAUUAUGUUACGCCGUUCGGAUCUGCACUUCC` gave a log2 enrichment of 0.3.

Sample 4
SMILES: O=C(Nc1ccc(Oc2ccc(F)cc2)cc1)N1CCc2ncccc2[C@H]1c1ccc(F)cc1
Concentration: 1 µM
The remaining binding was 87% (Mitogen-activated protein kinase kinase kinase 3 (MAP3K3, Homo sapiens, UniProt Q99759); cell-free assay, competition with immobilised ligand).
For Casein kinase I isoform alpha-like (CSNK1A1L, Homo sapiens, UniProt Q8N752); cell-free assay, competition with immobilised ligand: remaining binding read 92%.
It gave 100% for remaining binding (Casein kinase II subunit alpha' (CSNK2A2, Homo sapiens, UniProt P19784); cell-free assay, competition with immobilised ligand).
It gave 100% for remaining binding (Serine/threonine-protein kinase 16 (STK16, Homo sapiens, UniProt O75716); cell-free assay, competition with immobilised ligand).
It gave 64% for remaining binding (Serine/threonine-protein kinase Nek3 (NEK3, Homo sapiens, UniProt P51956); cell-free assay, competition with immobilised ligand).
Myotonin-protein kinase (DMPK, Homo sapiens, UniProt Q09013); cell-free assay, competition with immobilised ligand — remaining binding: 91%.
Receptor-type tyrosine-protein kinase FLT3 (FLT3, Homo sapiens, UniProt P36888, D835V/ITD); cell-free assay, competition with immobilised ligand — remaining binding: 93%.
It gave 86% for remaining binding (MAP/microtubule affinity-regulating kinase 4 (MARK4, Homo sapiens, UniProt Q96L34); cell-free assay, competition with immobilised ligand).
The remaining binding was 96% (Cyclin-dependent kinase 17 (CDK17, Homo sapiens, UniProt Q00537); cell-free assay, competition with immobilised ligand).
It gave 100% for remaining binding (Wee1-like protein kinase (WEE1, Homo sapiens, UniProt P30291); cell-free assay, competition with immobilised ligand).
For Phosphatidylinositol 4,5-bisphosphate 3-kinase catalytic subunit alpha isoform (PIK3CA, Homo sapiens, UniProt P42336, Q546K); cell-free assay, competition with immobilised ligand: remaining binding read 75%.
It gave 91% for remaining binding (MAP kinase-interacting serine/threonine-protein kinase 2 (MKNK2, Homo sapiens, UniProt Q9HBH9); cell-free assay, competition with immobilised ligand).
It gave 96% for remaining binding (RAC-beta serine/threonine-protein kinase (AKT2, Homo sapiens, UniProt P31751); cell-free assay, competition with immobilised ligand).
For Fibroblast growth factor receptor 1 (FGFR1, Homo sapiens, UniProt P11362); cell-free assay, competition with immobilised ligand: remaining binding read 100%.
It gave 87% for remaining binding (Aurora kinase C (AURKC, Homo sapiens, UniProt Q9UQB9); cell-free assay, competition with immobilised ligand).
Ribosomal protein S6 kinase alpha-2, N-terminal kinase domain (RPS6KA2, Homo sapiens, UniProt Q15349); cell-free assay, competition with immobilised ligand — remaining binding: 100%.
It gave 79% for remaining binding (Cyclin-dependent kinase 19 (CDK19, Homo sapiens, UniProt Q9BWU1); competition binding).
For Mitogen-activated protein kinase kinase kinase 15 (MAP3K15, Homo sapiens, UniProt Q6ZN16); cell-free assay, competition with immobilised ligand: remaining binding read 100%.
It gave 86% for remaining binding (Receptor-type tyrosine-protein kinase FLT3 (FLT3, Homo sapiens, UniProt P36888, D835H); cell-free assay, competition with immobilised ligand).

Other studies, line by line
For NNc1nncc2ccccc12, “nuclear SOX9 intensity” read 103 % of DMSO (mouse MPNST tumor cells; high-content immunofluorescence imaging, measured: nuclear SOX9; 10 µM, 12 h, mean of 2 replicates; relative to: DMSO control, higher = more nuclear SOX9).
For CC(C)n1cnc(-c2ccc(F)cc2)c1-c1ncc(C(=O)Nc2ccc(N3CCN(C)CC3)cc2)[nH]1, “patients with interstitial lung disease” read 0% (human, idiopathic pulmonary fibrosis; 30 mg once daily, trial, treatment-emergent).
For CC(C)c1ccc(C(=O)N=C(N)N)cc1S(C)(=O)=O, “nuclear SOX9 intensity” read 93.4 % of DMSO (mouse MPNST tumor cells; high-content immunofluorescence imaging, measured: nuclear SOX9; 10 µM, 12 h, mean of 2 replicates; relative to: DMSO control, higher = more nuclear SOX9).
For CCCN1C(=O)[C@H](CC(C)C)NC(=O)[C@@H](N(C)C(=O)[C@H](CC2CCC2)NC(=O)[C@@H]2C[C@@H](F)CN2C(=O)[C@@](C)(O)C(F)(F)F)CCCCNC(=O)C2(CC2)NC(=O)[C@@H]1Cc1cc(Cl)ccc1Cl, the tumour volume was 250 mm3 and 280 mm3 and 312 mm3 and 233 mm3 and 182 mm3 and 193 mm3 and 237 mm3 and 271 mm3 (mouse NCI-H1048 xenograft; iv, 100 mg/kg once daily, day 0).

Some of these lines once more (other studies, line by line):
For NNc1nncc2ccccc12, “nuclear SOX9 intensity” read 103 % of DMSO (mouse MPNST tumor cells; high-content immunofluorescence imaging, measured: nuclear SOX9; 10 µM, 12 h, mean of 2 replicates; relative to: DMSO control, higher = more nuclear SOX9).
For CC(C)n1cnc(-c2ccc(F)cc2)c1-c1ncc(C(=O)Nc2ccc(N3CCN(C)CC3)cc2)[nH]1, “patients with interstitial lung disease” read 0% (human, idiopathic pulmonary fibrosis; 30 mg once daily, trial, treatment-emergent).
For CC(C)c1ccc(C(=O)N=C(N)N)cc1S(C)(=O)=O, “nuclear SOX9 intensity” read 93.4 % of DMSO (mouse MPNST tumor cells; high-content immunofluorescence imaging, measured: nuclear SOX9; 10 µM, 12 h, mean of 2 replicates; relative to: DMSO control, higher = more nuclear SOX9).
For CCCN1C(=O)[C@H](CC(C)C)NC(=O)[C@@H](N(C)C(=O)[C@H](CC2CCC2)NC(=O)[C@@H]2C[C@@H](F)CN2C(=O)[C@@](C)(O)C(F)(F)F)CCCCNC(=O)C2(CC2)NC(=O)[C@@H]1Cc1cc(Cl)ccc1Cl, the tumour volume was 250 mm3 and 280 mm3 and 312 mm3 and 233 mm3 and 182 mm3 and 193 mm3 and 237 mm3 and 271 mm3 (mouse NCI-H1048 xenograft; iv, 100 mg/kg once daily, day 0).
